Assay results pooled from the literature.
Compare with care: the assays were run in different laboratories.
Method: steady-state kinetics
B1: protein (Allochromatium vinosum, UniProt P45370); chain MFPIDIRPDKLTQEMLDYSRKLGQGMENLLNAEAIDTGVSPKQAVYSEDKLVLYRYDRPEGAPEAQPVPLLIVYALVNRPYMTDIQEDRSTIKGLLATGQDVYLIDWGYPDQADRALTLDDYINGYIDRCVDYLREAHGVDKVNLLGICQGGAFSLMYSALHPDKVRNLVTMVTPVDFKTPDNLLSAWVQNVDIDLAVDTMGNIPGELLNWTFLSLKPFSLTGQKYVNMVDLLDDPDKVKNFLRMEKWIFDSPDQAGETFRQFIKDFYQNNGFLNGGVVLGGQEVDLKDITCPVLNIFALQDHLVPPDASRALKGLTSSPDYTELAFPGGHIGIYVSGKAQKEVTPAIGKWLNER
B2: protein (Shewanella denitrificans, UniProt Q12KT8); chain MIHKLADVQSQNIGDNTKVWQFCVILAGAVIGRNCNICANSLIENDVVIGDNVTIKSGVQIWDGIHIQDDVFIGPNVTFTNDKQPRSKIYPDEYLKTIVKKGASIGANSTILPGILIGENAMVGAGAVITKNVPDNAIVIGNPGRITGYVEANTGVIMPSNNFELKLQMSKVKGVSLHKFHLVNDLRGNLSVGEFEKDIPFTPKRYFTVFGVPNKEVRGEHAHKECKQFLICVSGNCSVLVDDGENREEYVLDSIDKGIYLPPMTWGVQYKYSKDAVLLVFASHYYDSDDYIRDYSTFKQMRQN
B3: sacB S173A (Priestia megaterium, UniProt D5DC07); chain KGNDSKDFNNSYGISHITRDNMVKIPQQQNSDQFKVPAFDESTIKNIASAKGKNASGNTIDLDVWDSWPLQNADGTVATYHGYQIVFALAGDPKDSNDTSVYLFYKKAGDKSIDSWKNAGRVFKDSDKFVPNDPHLKNQTQEWAGSGTLTKDGKVRLFYTDYSGKQYGKQTLTTAQVNMSQPNDNTLKVDGVEDYKSIFDGDGKIYQTVQQFIDEGGYDTGDNHTLRDPHYIEDNGHKYLVFEANTGTEDGYQGEDSLYNRAYYGGNNPFFQSEKKKLLEGSNKEKASLANGALGIIELNDDYTLKKVMKPLITSNTVTDEIERANIFKKDGKWYLFTDSRGSKMTIDGIGQDDVYMLGYVSNTLTGKYKPLNDTGLVLHMDLDPNDKTFTYSHFAVPQTKGDNVVITSYMTNRGFYEDNHSTFAPSFLVNIDGSKTSVVKDRVLEQGQLTVDED
B4: ADA (Homo sapiens, UniProt P00813); chain MAQTPAFDKPKVELHVHLDGSIKPETILYYGRRRGIALPANTAEGLLNVIGMDKPLTLPDFLAKFDYYMPAIAGCREAIKRIAYEFVEMKAKEGVVYVEVRYSPHLLANSKVEPIPWNQAEGDLTPDEVVALVGQGLQEGERDFGVKARSILCCMRHQPNWSPKVVELCKKYQQQTVVAIDLAGDETIPGSSLLPGHVQAYQEAVKSGIHRTVHAGEVGSAEVVKEAVDILKTERLGHGYHTLEDQALYNRLRQENMHFEICPWSSYLTGAWKPDTEHAVIRLKNDQANYSLNTDDPLIFKSTLDTDYQMTKRDMGFTEEEFKRLNINAAKSSFLPEDEKRELLDLLYKAYGMPPSASAGQNL
B5: protein F222G (Planktothrix agardhii, UniProt F5B6Z0); chain MIVNVIQKDRLKEQKLQFIRNHQQAFDVEPIYPLPLFEDFVTSIEGDCSLEASCKIESDKLIASRFLLFFEDKTQEWQKYLHQSLTFFGLVENRVGVKINYSLLQQFLGSSFDFSKVTVLSAGIDLRNNLAESSLKMHIRIKDYPEKLDKAFALSDGAADGNYLKDFVNLIGFDFYFNGKSEIEIYAEVQEDDFFKPEINNLVWQHFPKTALQPLKASSLFGTGLSKANNNPVLYYHLKNRQDLTNYFKLNDTAQRVHSFYQHQDILPYMWVGTAQKELEKTRIENIRLYYYKSFKMESN
B6: enzyme (Thermobifida fusca, UniProt Q47RA9); chain MIMIMASKSSPHDLPDVSGLSIAVLGGTGDQGRGLARRFAMAGHEVILGSRSAERAQAVAAELGEGLPVRGMDNAGAAEAGDVVIVAVPWDGHRALLESLKDVLAGKIVVDCVNPLGFDKRGAYALPVEEGSAAEQAAAILPDSRVVAAFHHVSAVLLLDPEVEKVDLDVLVLGDDREATDVVRALAARIPGVRGVYGGRLRNAHQVEAFTANLISINRRYKAHAGIRITDI
B7: protein Y93S (Thermus thermophilus, UniProt Q5SKR5); chain MSAPKPFVIGIAGGTASGKTTLAQALARTLGERVALLPMDHYYKDLGHLPLEERLRVNYDHPDAFDLALYLEHAQALLRGLPVEMPVYDFRASTRSPRRTPVRPAPVVILEGILVLYPKELRDLMDLKVFVDADADERFIRRLKRDVLERGRSLEGVVAQYLEQVKPMHLHFVEPTKRYADVIVPRGGQNPVALEMLAAKALARLARMGAA
B8: PRP43 F357A (Saccharomyces cerevisiae, UniProt P53131); chain MGSKRRFSSEHPDPVETSIPEQAAEIAEELSKQHPLPSEEPLVHHDAGEFKGLQRHHTSAEEAQKLEDGKINPFTGREFTPKYVDILKIRRELPVHAQRDEFLKLYQNNQIMVFVGETGSGKTTQIPQFVLFDEMPHLENTQVACTQPRRVAAMSVAQRVAEEMDVKLGEEVGYSIRFENKTSNKTILKYMTDGMLLREAMEDHDLSRYSCIILDEAHERTLATDILMGLLKQVVKRRPDLKIIIMSATLDAEKFQRYFNDAPLLAVPGRTYPVELYYTPEFQRDYLDSAIRTVLQIHATEEAGDILLFLTGEDEIEDAVRKISLEGDQLVREEGCGPLSVYPLYGSLPPHQQQRIAEPAPESHNGRPGRKVVISTNIAETSLTIDGIVYVVDPGFSKQKVYNPRIRVESLLVSPISKASAQQRAGRAGRTRPGKCFRLYTEEAFQKELIEQSYPEILRSNLSSTVLELKKLGIDDLVHFDFMDPPAPETMMRALEELNYLACLDDEGNLTPLGRLASQFPLDPMLAVMLIGSFEFQCSQEILTIVAMLSVPNVFIRPTKDKKRADDAKNIFAHPDGDHITLLNVYHAFKSDEAYEYGIHKWCRDHYLNYRSLSAADNIRSQLERLMNRYNLELNTTDYESPKYFDNIRKALASGFFMQVAKKRSGAKGYITVKDNQDVLIHPSTVLGHDAEWVIYNEFVLTSKNYIRTVTSVRPEWLIEIAPAYYDLSNFQKGDVKLSLERIKEKVDRLNELKQGKNKKKSKHSKK
Chain of UniProt P31513 (whole entry, looked up): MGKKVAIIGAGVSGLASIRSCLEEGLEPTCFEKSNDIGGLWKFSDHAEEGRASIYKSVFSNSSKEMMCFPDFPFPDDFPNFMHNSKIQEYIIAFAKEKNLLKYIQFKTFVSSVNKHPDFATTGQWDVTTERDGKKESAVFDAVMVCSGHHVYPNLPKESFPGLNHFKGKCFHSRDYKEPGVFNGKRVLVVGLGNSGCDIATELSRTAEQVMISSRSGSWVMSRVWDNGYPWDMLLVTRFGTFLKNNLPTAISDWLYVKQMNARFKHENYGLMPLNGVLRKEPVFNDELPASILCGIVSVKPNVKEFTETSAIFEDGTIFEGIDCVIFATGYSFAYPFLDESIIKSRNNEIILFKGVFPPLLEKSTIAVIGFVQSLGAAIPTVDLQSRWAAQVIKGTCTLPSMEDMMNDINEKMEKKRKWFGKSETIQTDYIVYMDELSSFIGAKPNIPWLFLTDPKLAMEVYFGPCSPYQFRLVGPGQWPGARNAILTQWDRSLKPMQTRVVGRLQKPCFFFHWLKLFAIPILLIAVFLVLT

For `B1 (protein)`, the Km was 110 µM (CC[C@@H](O)CC(=O)SCCNC(=O)CCNC(=O)[C@H](O)C(C)(C)COP(=O)(O)OP(=O)(O)OC[C@H]1O[C@@H](n2cnc3c(N)ncnc32)[C@H](O)[C@@H]1OP(=O)(O)O; pH 7.8, 30 °C).
With `protein (Danio rerio, UniProt A0ACM8QCA3)` the Km was 15.8 µM (C[C@H](CCCC(CO)CO)[C@H]1CC[C@H]2[C@@H]3[C@H](O)C[C@@H]4C[C@H](O)CC[C@]4(C)[C@H]3C[C@H](O)[C@]12C; pH 7, 28 °C, substrate inhibition, with: PAPS 14 µM).
The Km of `B2 (protein)` is reported as 110 µM (Cc1cn([C@H]2C[C@H](O)[C@@H](COP(=O)(O)OP(=O)(O)O[C@H]3O[C@H](C)[C@@H](O)[C@H](N)[C@H]3O)O2)c(=O)[nH]c1=O; pH 8.5, with: acetyl-CoA 2 mM).
With `B3 (sacB S173A)` the Km was 3900 µM (OC[C@H]1O[C@@](CO)(O[C@H]2O[C@H](CO)[C@@H](O)[C@H](O)[C@H]2O)[C@@H](O)[C@@H]1O; pH 6.6).
For `B4 (ADA)`, the Km was 70.4 µM (Nc1ncnc2c1ncn2[C@@H]1O[C@H](CO)C[C@H]1O; human erythrocytes; pH 5.8, 37 °C).
`protein (Strongylocentrotus purpuratus, UniProt A0A7M7RGC6)` has a Km of 0.94 µM (CC(C)(COP(=O)(O)OP(=O)(O)OC[C@H]1O[C@@H](n2cnc3c(N)ncnc32)[C@H](O)[C@@H]1OP(=O)(O)O)[C@@H](O)C(=O)NCCC(=O)NCCSC(=O)CC(=O)O; without acetyl-CoA, with: malonyl-CoA).
The Km of `B5 (protein F222G)` is reported as 370 µM (CC(C)=CCC/C(C)=C/COP(=O)(O)OP(=O)(O)O; with: tri-Tyr peptide acceptor).
The Km of `FMO3 (Homo sapiens, UniProt P31513)` is reported as 80 µM (CN(C)CCCOc1nn(Cc2ccccc2)c2ccccc12; 37 °C, not purified).
The Km of `B6 (enzyme)` is reported as 25000 µM (NC(=O)c1ccc[n+](CCCO)c1; pH 8, 25 °C).
`B7 (protein Y93S)` has a Km of 225 µM (Nc1ccn([C@@H]2O[C@H](CO)[C@@H](O)[C@H]2O)c(=O)n1; pH 7.2, 25 °C, KCl 100 mM, with: ATP 100–200 µM).
`B8 (PRP43 F357A)` has a Km of 175 µM (Nc1ccn([C@@H]2O[C@H](COP(=O)(O)OP(=O)(O)OP(=O)(O)O)[C@@H](O)[C@H]2O)c(=O)n1; pH 8, KCl 100 mM, without Pfa1, with: polyA 0.2 mM, magnesium acetate 2.5 mM).
`protein (UniProt M4ZR24)` gave a Km of 870 µM (NC[C@H]1O[C@@H](n2ccc(=O)[nH]c2=O)C[C@@H]1O; phosphorolysis, single substrate, with: phosphate).

For quick reference, copied from above:
The Km of `B6 (enzyme)` is reported as 25000 µM (NC(=O)c1ccc[n+](CCCO)c1; pH 8, 25 °C).
`B7 (protein Y93S)` has a Km of 225 µM (Nc1ccn([C@@H]2O[C@H](CO)[C@@H](O)[C@H]2O)c(=O)n1; pH 7.2, 25 °C, KCl 100 mM, with: ATP 100–200 µM).
